# Experimental data collected from several papers.
# Numbered parts are unrelated; each lists some results of a single study.

# Series 1 — technique: aptamer microarray, sandwich; form: DNA with 2'F-ANA; matrix: in vitro; tested at: 200 nM; added: Cy3 exosite-II aptamer, 400 nM; direction: higher = stronger binding; strand: GGTTGGTGTGGTTGG
# Target: Prothrombin, mature alpha-thrombin (F2, Homo sapiens, UniProt P00734)
# Setting: whole 15-mer aptamer, many near background
Modification,mean fluorescence intensity [a.u.]
2'F-ANA at 5 7 8 9 11 13 15,72.6
2'F-ANA at 2 5 8 9 10 11 12 14 15,46
2'F-ANA at 2 3 5 9 13,69.4
2'F-ANA at 3 7 8 9 11 15,1010
2'F-ANA at 2 3 6 7 9 12 13 15,723
2'F-ANA at 1 2 8 9 10 12 14,214
2'F-ANA at 1 2 3 6 8 10 12 13 14 15,60.6
2'F-ANA at 1 2 3 13 15,175
2'F-ANA at 1 2 5 6 13 14,46
2'F-ANA at 3 4 6 7 10 11 12 13,242

# Series 2 — technique: protein binding microarray; form: double-stranded DNA, one strand shown; matrix: in vitro; tested at: not given; relative to: not given; direction: higher = stronger binding
# Target: Histone acetyltransferase KAT6A, winged helix 1, GST fusion (KAT6A, Homo sapiens, UniProt Q92794, residues 1-85)
# Setting: 8-mer, flanks averaged, mean of 2 arrays, mostly near background
# Construct (chain): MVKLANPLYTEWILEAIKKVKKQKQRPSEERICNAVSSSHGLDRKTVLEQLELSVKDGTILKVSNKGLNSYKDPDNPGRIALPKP
Strand,E-score
GGGCAATA,0.0672
CATACTGA,-0.171
CTCTGGGC,-0.146
CATGCTCA,-0.142
CATCACCG,0.106
TATTTCAA,-0.231
AAAGATAA,-0.133
ACTAAAAG,-0.111

# Series 3 — technique: Spec-seq; form: double-stranded DNA, one strand shown; matrix: in vitro; tested at: not given; setting: whole probe, mean of replicates; relative to: not given; direction: lower = stronger binding; shared flanks, not repeated: GAGTCGTCTCGTCAGCAC … TCCGTAGAGCACTCAGGTC
# Target: POU, POU domain (Salpingoeca helianthica)
# Construct (chain): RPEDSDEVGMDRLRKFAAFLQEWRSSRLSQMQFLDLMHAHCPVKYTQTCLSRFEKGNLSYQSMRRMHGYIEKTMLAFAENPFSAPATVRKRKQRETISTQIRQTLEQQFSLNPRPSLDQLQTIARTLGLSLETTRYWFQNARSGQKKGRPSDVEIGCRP
Strand,relative binding energy
ATAAATA,-0.109 ln ratio
CAGCTAA,0.79 ln ratio
ATGCAAG,1.18 ln ratio
ATCTGAA,1.08 ln ratio
ATGCTGT,1.11 ln ratio

# Other studies, line by line
Molecule,target,test,system,conditions,how to read,quantity,result
"PhoQ, residues 284 288 289 292 302 303 AGHLVA","PhoP, residues 12 14 15 18 19 GHCSL (Escherichia coli, UniProt P23836)","Sort-seq, item: YFP reporter",E. coli,"PhoQ-PhoP variant library, added: 10 µM Mg2+","relative to: high Mg2+ state, higher = stronger signaling",fold induction,13.3

# For quick reference, copied from above (series 1):
Modification,mean fluorescence intensity [a.u.]
2'F-ANA at 1 2 3 13 15,175
2'F-ANA at 1 2 5 6 13 14,46
